Measured values collected from several papers.
Protocols differ between the studies behind these lines. ± marks the error that the study gave.
Cell line: RAW264.7

`COC1=C[C@@H]2[C@@H]3Cc4ccc(OC)c(OC(=O)c5cnccn5)c4[C@]2(CCN3C)CC1=O` has an IC50 of 30.3 µM (NO release, inhibitor, Griess; LPS-stimulated).
The EC50 of `CC(C)C[C@@H](NC(=O)[C@@H](C)NC(=O)[C@@H](CC(C)C)NC(=O)[C@@H](CCCCN)NC(=O)[C@H](N)CCCCN)C(=O)N[C@H](Cc1c[nH]cn1)C(=O)N[C@H](C)C(=O)N[C@H](CC(C)C)C(=O)N[C@H](CCCCN)C(=O)N[C@H](CCCCN)C(=O)N[C@H](Cc1c[nH]c2ccccc12)C(=O)N[C@H](CC(C)C)C(=O)N[C@H](Cc1c[nH]cn1)C(=O)N[C@H](C)C(=O)N[C@H](CC(C)C)C(=O)N[C@H](CCCCN)C(=O)N[C@H](CCCCN)C(=O)N[C@H](CC(C)C)C(=O)N[C@H](C)C(=O)N[C@H](Cc1c[nH]cn1)C(=O)N[C@H](CC(C)C)C(=O)N[C@H](C)C(=O)N[C@H](CC(C)C)C(=O)N[C@H](CCCCN)C(=O)N[C@H](CCCCN)C(N)=O` is reported as 5.21 ± 0.57 µM (cytotoxicity, MTT; four hours, 37 °C, serum-free medium).
`CCCCn1cc(C(=O)O)c(=O)c2cc(F)c(Nc3cccc(Cl)c3)c([N+](=O)[O-])c21` has an IC50 of 69.3 µM (NO release, inhibitor, Griess; LPS-stimulated).
For `Cc1ccc(C(C)C)c(OC(=O)COC(=O)Cn2cnc3c2c(=O)n(C)c(=O)n3C)c1`, the inhibition was 74% (NO release, inhibitor, Griess; 25 µM, LPS-stimulated).
Under “IL-1β and IL-6 secretion”, `CC(C)OC(=O)[C@H](C)NP(=S)(Oc1ccccc1)c1ccccc1` (stereo partly shown) is recorded as “inhibited” (ELISA; 20, 100, 500 µM, 24 h, with: LPS 1 µg/mL).
`COC1=C[C@@H]2[C@@H]3Cc4c(Br)cc(OC)c(OC(=O)c5ccncn5)c4[C@]2(CCN3C)CC1=O` has an IC50 of 58.8 µM (NO release, inhibitor, Griess; LPS-stimulated).
With `C=CCc1ccc(OC(=O)COC(=O)Cn2cnc3c2c(=O)n(C)c(=O)n3C)c(OC)c1` the inhibition was 49.3% (ELISA, refers to: IL-6; 10 µM, with: LPS; baseline: LPS alone).
The EC50 of `CC(C)C[C@@H](NC(=O)[C@@H](C)NC(=O)[C@@H](CCCCN)NC(=O)[C@@H](CC(C)C)NC(=O)[C@@H](C)NC(=O)[C@H]1CCCN1C(=O)[C@@H](CC(C)C)NC(=O)[C@@H](Cc1c[nH]c2ccccc12)NC(=O)[C@@H](CCCCN)NC(=O)[C@@H](C)NC(=O)[C@@H](CC(C)C)NC(=O)[C@@H](C)NC(=O)[C@@H](Cc1c[nH]cn1)NC(=O)[C@@H](CCCCN)NC(=O)[C@@H](CC(C)C)NC(=O)[C@@H](C)NC(=O)[C@@H](CCCCN)NC(=O)[C@H](N)CCCCN)C(=O)N[C@H](C)C(=O)N[C@H](Cc1c[nH]cn1)C(=O)N[C@H](CCCCN)C(=O)N[C@H](CC(C)C)C(=O)N[C@H](C)C(=O)N[C@H](CCCCN)C(=O)N[C@H](CCCCN)C(N)=O` is reported as 3.95 ± 0.4 µM (cytotoxicity, MTT; four hours, 37 °C, serum-free medium).
For `COC1=C[C@@H]2[C@@H]3Cc4ccc(OC)c(OC(=O)[C@H](C)N)c4[C@]2(CCN3C)CC1=O`, the IC50 was 68.9 µM (NO release, inhibitor, Griess; LPS-stimulated).
The IC50 of `CCCCn1cc(C(=O)O)c(=O)c2cc(F)c3c(nnn3-c3cccc(Cl)c3)c21` is reported as 32.2 ± 4.94 µg/mL (nitric oxide production, Griess; 24 h, with: LPS).
The inhibition of `COc1cc(C=O)ccc1OC(=O)COC(=O)Cn1cnc2c1c(=O)n(C)c(=O)n2C` is reported as 68.6% (NO release, inhibitor, Griess; 25 µM, LPS-stimulated).
The IC50 of `COC1=C[C@@H]2[C@@H]3Cc4ccc(OC)c(OC(=O)c5ccncn5)c4[C@]2(CCN3C)CC1=O` is reported as 64 µM (NO release, inhibitor, Griess; LPS-stimulated).
`C=CCc1ccc(OC(=O)CSc2nnc(Cn3cnc4c3c(=O)n(C)c(=O)n4C)o2)c(OC)c1` has an inhibition of 93.2% (NO release, inhibitor, Griess; 25 µM, LPS-stimulated).
With `CCCCn1cc(C(=O)O)c(=O)c2cc(F)c3c(nnn3-c3ccccc3Cl)c21` the IC50 was 34.9 ± 2.06 µg/mL (nitric oxide production, Griess; 24 h, with: LPS).
With `Cc1ccc(C(C)C)c(OC(=O)CSc2nnc(Cn3cnc4c3c(=O)n(C)c(=O)n4C)o2)c1` the inhibition was 92.8% (NO release, inhibitor, Griess; 25 µM, LPS-stimulated).
With `COC1=C[C@@H]2[C@@H]3Cc4ccc(OC)c(OC(=O)CNC(=O)OC(C)(C)C)c4[C@]2(CCN3C)CC1=O` the IC50 was 42.3 µM (NO release, inhibitor, Griess; LPS-stimulated).
With `CC(C)C[C@@H](NC(=O)[C@@H](C)NC(=O)[C@@H](CCCCN)NC(=O)[C@H](N)CCCCN)C(=O)N[C@H](C)C(=O)N[C@H](CCCCN)C(=O)N[C@H](C)C(=O)N[C@H](CC(C)C)C(=O)N[C@H](CCCCN)C(=O)N[C@H](Cc1c[nH]cn1)C(=O)N[C@H](Cc1c[nH]c2ccccc12)C(=O)N[C@H](CC(C)C)C(=O)N1CCC[C@@H]1C(=O)N[C@H](C)C(=O)N[C@H](CC(C)C)C(=O)N[C@H](Cc1c[nH]cn1)C(=O)N[C@H](CCCCN)C(=O)N[C@H](CC(C)C)C(=O)N[C@H](C)C(=O)N[C@H](CCCCN)C(=O)N[C@H](C)C(=O)N[C@H](CC(C)C)C(=O)N[C@H](C)C(=O)N[C@H](CCCCN)C(=O)N[C@H](CCCCN)C(N)=O` the EC50 was 7.08 ± 1.42 µM (cytotoxicity, MTT; four hours, 37 °C, serum-free medium).
`COC1=C[C@@H]2[C@@H]3Cc4ccc(OC)c(OC(=O)[C@@H](N)Cc5ccccc5)c4[C@]2(CCN3C)CC1=O` has an IC50 of 72.3 µM (NO release, inhibitor, Griess; LPS-stimulated).
For `COc1ccc(-n2cc(C(=O)N3C[C@]4(OC(=O)c5ccccc5NC(C)=O)CC[C@H](OC)[C@@]56[C@@H]4C[C@@H]([C@@H]35)[C@@]3(O)C[C@H](OC)[C@H]4C[C@@H]6[C@]3(O)[C@H]4OC)nn2)cc1`, p-IkBa/IkBa ratio read “decreased” (western blot; 30, 60 or 120 µM, 24 h, with: LPS 1 µg/mL).

Repeated from above:
With `Cc1ccc(C(C)C)c(OC(=O)CSc2nnc(Cn3cnc4c3c(=O)n(C)c(=O)n4C)o2)c1` the inhibition was 92.8% (NO release, inhibitor, Griess; 25 µM, LPS-stimulated).
The EC50 of `CC(C)C[C@@H](NC(=O)[C@@H](C)NC(=O)[C@@H](CCCCN)NC(=O)[C@@H](CC(C)C)NC(=O)[C@@H](C)NC(=O)[C@H]1CCCN1C(=O)[C@@H](CC(C)C)NC(=O)[C@@H](Cc1c[nH]c2ccccc12)NC(=O)[C@@H](CCCCN)NC(=O)[C@@H](C)NC(=O)[C@@H](CC(C)C)NC(=O)[C@@H](C)NC(=O)[C@@H](Cc1c[nH]cn1)NC(=O)[C@@H](CCCCN)NC(=O)[C@@H](CC(C)C)NC(=O)[C@@H](C)NC(=O)[C@@H](CCCCN)NC(=O)[C@H](N)CCCCN)C(=O)N[C@H](C)C(=O)N[C@H](Cc1c[nH]cn1)C(=O)N[C@H](CCCCN)C(=O)N[C@H](CC(C)C)C(=O)N[C@H](C)C(=O)N[C@H](CCCCN)C(=O)N[C@H](CCCCN)C(N)=O` is reported as 3.95 ± 0.4 µM (cytotoxicity, MTT; four hours, 37 °C, serum-free medium).
With `CCCCn1cc(C(=O)O)c(=O)c2cc(F)c3c(nnn3-c3ccccc3Cl)c21` the IC50 was 34.9 ± 2.06 µg/mL (nitric oxide production, Griess; 24 h, with: LPS).
